Measurements of several laboratories.
Protocols differ between the studies behind these lines. Values joined by “and” are separate records of one study, mostly repeats; a detail may differ. Numbers after ± are the reported error.

SMILES	test	system	conditions	how to read	measurement	value
CNC(=O)c1ccc(-c2cnc3ncc(Cc4ccc5ncccc5c4)n3n2)cc1F		other cancer patients	oral, 600 mg twice daily, all grades RP2D expansion		abdominal distension incidence	6%
Cc1ccc(Sc2ccccc2N2CCNCC2)c(C)c1	measured: AST increased	healthy adult men	oral, 10 mg daily, 12 days		participants with TEAE	0%
CCOC(=O)c1c(NC(=O)CNC(C)C)sc2c1CCCCC2		mouse, brain	intraperitoneal, 5 mg/kg		brain AUC(0-1 h)	227 ng·h/g
CCc1cc(C(=O)NC)c2nccc(N3CCc4c(cc(Cn5ccnc5)cc4-c4cn(C)nc4C(F)(F)F)C3=O)c2c1		Sprague Dawley rats	oral, 100 mg/kg once daily, 7 days		blood HGB	133 ± 4.11 g/L
COc1ccc2c(c1)CN(C(=O)CCN1CCC(Cc3ccccc3)CC1)CC[S@@+]2[O-]	telemetry	conscious dog	intravenous, 2 mg/kg, 1 h		diastolic blood pressure	76 ± 7 mmHg
O=C(COc1ccc(Cl)cc1)NC12CC(c3nnc([C@H]4C[C@@H](OC(F)(F)F)C4)o3)(C1)C2		healthy human volunteers fasted, plasma	oral, 400 mg single dose, geometric mean		Cmax	4250 nM
COc1cc([C@H]2OC[C@H]3[C@@H]2CO[C@@H]3c2ccc(O[C@@H]3O[C@H](CO)[C@@H](O)[C@H](O)[C@H]3O)c(OC)c2)ccc1O[C@@H]1O[C@H](CO)[C@@H](O)[C@H](O)[C@H]1O	post-procedure stability	rat plasma	200 ng/mL, 1 h, room temperature		accuracy	102%
COCc1cc(C(=O)Nc2cc([C@H]3CC[C@@H](OC(=O)NC(C)C)C3)[nH]n2)n(C)n1		OVCAR-3 xenograft, NOD/SCID gamma mice, plasma	oral, 75 twice daily, tumour growth inhibition study		AUC(0-24h)	10.6 µM·h
CCc1nc(C(N)=O)c(Nc2ccc(N3CCC(N4CCN(C)CC4)CC3)c(OC)c2)nc1NC1CCOCC1		processed mouse plasma	425 ng/mL, 24 h, 4 °C		autosampler stability accuracy	98.5%
Cl.[2H]C([2H])([2H])CC(=O)c1cnc(NC(=O)C2CC2)cc1Nc1cccc(-c2ncn(C([2H])([2H])[2H])n2)c1OC	geometric mean	human	oral, 40 mg twice daily, day 14, fasted, tablet, multiple dose		AUC(0-tau)	3250 ng·h/mL
CNCCOC12CC3(C)CC(C)(CC(Cn4ncc(-c5ccc(N6CCc7cccc(C(=O)Nc8nc9ccccc9s8)c7C6)nc5C(=O)O)c4C)(C3)C1)C2		anaesthetised male beagle dogs	intravenous bolus, 0.03 mg/kg, 75 min	baseline: baseline	cardiac output change	-23%
Cc1c(C(=O)O)ccc2c3n(nc12)[C@@H]1[C@H](C3)N(CC2CC2)[C@@]2(C(=O)Nc3cc(Cl)ccc32)[C@H]1c1cccc(Cl)c1F		female BALB/c nude mice, SJSA-1 xenograft, plasma	oral, 1 mg/kg twice daily, 24 h		plasma concentration	732 nM
O=C(N[C@H](Cc1c[nH]c2ccccc12)C(=O)Nc1ccncc1)c1ccc(N2CCN(c3ccc(F)cc3F)CC2)cc1F		Swiss Webster mouse, female, muscle	oral, 50 mg/kg, 2 h, 20% HPβCD vehicle		concentration	1030 nM
C[Si]1(C)O[Si](C)(C)O[Si](C)(C)O[Si](C)(C)O1		1-octanol/air	concentration not given		entropy of phase change	-0.065 kJ/(mol·K)
N#CCNC(=O)c1ccc(-c2ccnc(Nc3ccc(N4CCOCC4=O)cc3)n2)cc1		healthy volunteers, plasma	with: rifampin multiple-dose	baseline: with rifampin over alone	AUC(0-t) geometric mean ratio	105%
C=CC(=O)Nc1cc(Nc2ncc(C(=O)OC(C)C)c(-c3cn(C)c4ccccc34)n2)c(OC)cc1N(C)CCN(C)C		healthy human, urine	oral, 40 mg single dose, 0-48 h, arithmetic mean		amount excreted in urine	0.53 mg
CC[C@H](C)[C@H](NC(=O)CN)C(=O)N[C@@H](CC(C)C)C(=O)N[C@@H](CC(=O)O)C(=O)N[C@@H](C)C(=O)N[C@H](C(=O)N[C@@H](CCCCN)C(=O)N[C@@H](C)C(=O)N[C@H](C(=O)N[C@@H](C)C(N)=O)[C@@H](C)CC)[C@@H](C)CC	circular dichroism	10 mM SDS	100 µM		helix content	5%
Cn1cc(-c2ccc(S(=O)(=O)[C@@H]3C[C@@H](C(=O)NC4(C#N)CC4)N(C(=O)C4(C(F)(F)F)CC4)C3)c(C(F)(F)F)c2)cn1	noncompartmental analysis	human, plasma	oral, 200 mg, day 1, with food, geometric mean		t_half	606 min
Cc1cc(-c2nnc(N)nc2-c2ccc(F)cc2)cc(Cl)n1	measured: diarrhea, any grade	IO-naive patients with other tumours	oral, 100 mg		incidence of treatment-related AE	21.1%
Cc1nc2cccc(OCC(C)(C)C(=O)NC(C)C)c2c(N)c1C(=O)O		male Swiss albino CD-1 mouse, bone marrow	oral, 500 mg/kg, 48 h		PCE/NCE ratio	0.87

SMILES	test	system	conditions	how to read	measurement	value
C=C[C@@](C)(/C=C/c1ccc(O)cc1)CCC=C(C)C	post-procedure stability	rat plasma	8 ng/mL, 1 h, room temperature		accuracy	82.4%
Cc1cc(NC2CCN(C(=O)OC3CCN(C(=O)/C=C/CN(C)C)C3)CC2)n2ncc(C(C)C)c2n1 (stereo not drawn)	Phase I dose escalation CTCAE v4.0, measured: decreased appetite	patients with advanced solid tumours	dose not given, QD dosing grade 3 or higher		patients with adverse event	2%
CCCCC1=NC2(CCCC2)C(=O)N1Cc1ccc(-c2ccccc2S(=O)(=O)Nc2noc(C)c2C)c(COCC)c1		healthy adult volunteers, plasma	oral, 100 mg, single dose, fed, crushed tablet		Cmax	2310 ng/mL
O=C(Nc1nc2cccc(-c3ccc(CN4CCS(=O)(=O)CC4)cc3)n2n1)C1CC1	measured: headache	human rheumatoid arthritis patients	oral, 300 mg once daily, 4 weeks, regardless of relatedness		treatment-emergent adverse events	10%
OC[C@H]1O[C@@H](c2ccc(Cl)c(Cc3ccc(O[C@H]4CCOC4)cc3)c2)[C@H](O)[C@@H](O)[C@@H]1O		Japanese type 1 diabetes patients, blood	10 mg, day 28	baseline: baseline	change in Bicarbonate	-1.2 mEq/L
C=CC(=O)Nc1cc(Nc2nccc(-c3cn(C)c4ccccc34)n2)c(OC)cc1N(C)CCN(C)C	storage stability	human plasma	24 h, on ice, medium QC level		recovery	87.4%
[18F]c1ccc(-c2ccc3c(c2)[nH]c2ccncc23)cn1	ex vivo biodistribution	APP/PS1 mouse, AD model, eyes	intravenous, 30 min		SUV	2.74 ± 0.652
NC1(C(=O)N[C@@H](CCO)c2ccc(Cl)cc2)CCN(c2nc[nH]c3nccc2-3)CC1		human mCRPC patients	oral, twice daily, 4/7 days, grade 3/4, treatment-related, with: enzalutamide 160 mg daily		weight decreased incidence	0%
Oc1ccc(/C=C/c2cc(O)cc(O)c2)cc1		rat, azoxymethane-injected, blood	in vivo, 100 mg/kg, at sacrifice		UA level	1.1 mg/dL and 0.9 mg/dL and 1.2 mg/dL
CO[C@H]1C[C@@H]2CC[C@@H](C)[C@@](O)(O2)C(=O)C(=O)N2CCCC[C@H]2C(=O)O[C@H]([C@H](C)C[C@@H]2CC[C@@H](OC(=O)NCCOCCOCCOCCOCCOCCOCCOCCOCCC(=O)N3CCc4cc(Cn5nc(-c6ccc7oc(N)nc7c6)c6c(N)ncnc65)ccc4C3)[C@H](OC)C2)C[C@@H](O)[C@H](C)/C=C(\C)[C@@H](O)[C@@H](OC)C(=O)[C@H](C)C[C@H](C)/C=C/C=C/C=C/1C		human, plasma	intravenous, 8 mg, cycle 1 day 1, arithmetic mean		Tmax	48 min
c1cc2ccc3ccc4ccc5cccc6c(c1)c2c3c4c56		PDMS-water partitioning	PAH compilation	baseline: maximum over minimum K	literature range factor	4
C[C@@H](N)C1CCN(S(=O)(=O)c2cccc3cnccc23)CC1		healthy volunteers, fasted, plasma	oral, 25 mg		AUC(0-t)	3.03 ng·h/mL
Cc1cc(-c2nccc3c2ccn3CC(=O)Nc2ccc(-c3cnccn3)cn2)ccn1		human	5 mg once daily, multiple ascending dose		subjects with limb injury	0%
N#Cc1ccc2c(c1)[C@H]1CCCN(C(=O)c3ccc4[nH]cnc4c3)[C@H]1C2		human males	10 mg, end of trial		total testosterone level	13.6 nmol/L
CCN1/C(=C/C(C)=O)Sc2ccc(F)cc21		cynomolgus monkey	oral, 100 mg/kg, 2 h post-dose	baseline: pre-dose	QTc interval change	98.2 ± 2.2%
CCn1ncc2c1-c1cnc(N)c(c1)O[C@H](C)c1cc(F)ccc1-c1nn(C)nc1C2		female athymic nude mice, PDX model, plasma	oral, 0.04 mg/kg twice daily, 1 h, 5 days dosing		free plasma concentration	5.7 ± 0.7 nM
Cc1c(-c2ccc(N3CCc4cccc(C(=O)Nc5nc6ccccc6s5)c4C3)nc2C(=O)O)cnn1CC12CC3(C)CC(C)(C1)CC(OCCNCC[C@H](O)CO)(C3)C2		anaesthetised male beagle dogs	intravenous infusion, 0.3 mg/kg/min, 90 min	baseline: vehicle	systemic vascular resistance change	-7%
Cc1ccc([C@@H]2O[C@H](CO)[C@@H](O)[C@H](O)[C@H]2O)cc1Cc1ccc(-c2ccc(F)cc2)s1		Japanese type 2 diabetes patients	100 mg, day 2, 24 h urine collection	baseline: baseline	urinary sodium excretion change	-18.9 mEq
O=C(c1nc2n(n1)[C@H](c1ccccc1)C[C@@H]2F)C1CC1		human, fed	75 mg single dose		renal clearance	0.198 mL/min

Some of these lines once more:
SMILES	test	system	conditions	how to read	measurement	value
COc1cc([C@H]2OC[C@H]3[C@@H]2CO[C@@H]3c2ccc(O[C@@H]3O[C@H](CO)[C@@H](O)[C@H](O)[C@H]3O)c(OC)c2)ccc1O[C@@H]1O[C@H](CO)[C@@H](O)[C@H](O)[C@H]1O	post-procedure stability	rat plasma	200 ng/mL, 1 h, room temperature		accuracy	102%
COCc1cc(C(=O)Nc2cc([C@H]3CC[C@@H](OC(=O)NC(C)C)C3)[nH]n2)n(C)n1		OVCAR-3 xenograft, NOD/SCID gamma mice, plasma	oral, 75 twice daily, tumour growth inhibition study		AUC(0-24h)	10.6 µM·h
CCc1nc(C(N)=O)c(Nc2ccc(N3CCC(N4CCN(C)CC4)CC3)c(OC)c2)nc1NC1CCOCC1		processed mouse plasma	425 ng/mL, 24 h, 4 °C		autosampler stability accuracy	98.5%
